Results gathered from unrelated publications.
Parts stem from different laboratories: compare values within a part only. Values joined by “and” are separate records of one study, mostly repeats; a detail may differ.
UniProt P00519, sequence (whole entry, unmodified, looked up): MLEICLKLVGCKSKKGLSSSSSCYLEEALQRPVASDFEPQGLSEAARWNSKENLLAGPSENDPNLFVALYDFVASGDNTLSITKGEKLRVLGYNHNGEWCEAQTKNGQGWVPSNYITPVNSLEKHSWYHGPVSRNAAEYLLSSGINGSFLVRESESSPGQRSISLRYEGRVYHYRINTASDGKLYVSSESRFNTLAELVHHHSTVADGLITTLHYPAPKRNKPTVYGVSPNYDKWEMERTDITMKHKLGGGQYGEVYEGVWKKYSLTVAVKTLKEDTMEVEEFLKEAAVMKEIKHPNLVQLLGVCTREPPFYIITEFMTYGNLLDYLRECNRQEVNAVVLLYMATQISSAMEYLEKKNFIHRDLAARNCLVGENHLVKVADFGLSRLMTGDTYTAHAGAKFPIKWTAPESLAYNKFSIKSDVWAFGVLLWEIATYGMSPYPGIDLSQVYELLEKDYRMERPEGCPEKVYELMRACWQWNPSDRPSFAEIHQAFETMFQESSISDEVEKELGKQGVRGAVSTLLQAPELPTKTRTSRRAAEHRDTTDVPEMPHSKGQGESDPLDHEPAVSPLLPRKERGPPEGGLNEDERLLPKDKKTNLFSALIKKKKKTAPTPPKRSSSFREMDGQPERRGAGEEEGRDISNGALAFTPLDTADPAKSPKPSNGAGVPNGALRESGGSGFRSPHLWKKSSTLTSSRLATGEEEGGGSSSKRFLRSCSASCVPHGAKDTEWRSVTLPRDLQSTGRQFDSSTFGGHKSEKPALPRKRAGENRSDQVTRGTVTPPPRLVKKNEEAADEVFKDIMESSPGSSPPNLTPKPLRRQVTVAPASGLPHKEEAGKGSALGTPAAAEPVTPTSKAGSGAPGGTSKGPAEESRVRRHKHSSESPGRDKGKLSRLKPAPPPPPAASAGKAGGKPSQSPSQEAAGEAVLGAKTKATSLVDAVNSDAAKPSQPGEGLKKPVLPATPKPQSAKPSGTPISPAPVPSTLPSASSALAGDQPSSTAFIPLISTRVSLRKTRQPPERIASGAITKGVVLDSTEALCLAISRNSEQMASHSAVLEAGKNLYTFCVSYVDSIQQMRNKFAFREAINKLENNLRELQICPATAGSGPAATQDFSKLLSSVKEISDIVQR
UniProt Q07912, sequence (whole entry, looked up): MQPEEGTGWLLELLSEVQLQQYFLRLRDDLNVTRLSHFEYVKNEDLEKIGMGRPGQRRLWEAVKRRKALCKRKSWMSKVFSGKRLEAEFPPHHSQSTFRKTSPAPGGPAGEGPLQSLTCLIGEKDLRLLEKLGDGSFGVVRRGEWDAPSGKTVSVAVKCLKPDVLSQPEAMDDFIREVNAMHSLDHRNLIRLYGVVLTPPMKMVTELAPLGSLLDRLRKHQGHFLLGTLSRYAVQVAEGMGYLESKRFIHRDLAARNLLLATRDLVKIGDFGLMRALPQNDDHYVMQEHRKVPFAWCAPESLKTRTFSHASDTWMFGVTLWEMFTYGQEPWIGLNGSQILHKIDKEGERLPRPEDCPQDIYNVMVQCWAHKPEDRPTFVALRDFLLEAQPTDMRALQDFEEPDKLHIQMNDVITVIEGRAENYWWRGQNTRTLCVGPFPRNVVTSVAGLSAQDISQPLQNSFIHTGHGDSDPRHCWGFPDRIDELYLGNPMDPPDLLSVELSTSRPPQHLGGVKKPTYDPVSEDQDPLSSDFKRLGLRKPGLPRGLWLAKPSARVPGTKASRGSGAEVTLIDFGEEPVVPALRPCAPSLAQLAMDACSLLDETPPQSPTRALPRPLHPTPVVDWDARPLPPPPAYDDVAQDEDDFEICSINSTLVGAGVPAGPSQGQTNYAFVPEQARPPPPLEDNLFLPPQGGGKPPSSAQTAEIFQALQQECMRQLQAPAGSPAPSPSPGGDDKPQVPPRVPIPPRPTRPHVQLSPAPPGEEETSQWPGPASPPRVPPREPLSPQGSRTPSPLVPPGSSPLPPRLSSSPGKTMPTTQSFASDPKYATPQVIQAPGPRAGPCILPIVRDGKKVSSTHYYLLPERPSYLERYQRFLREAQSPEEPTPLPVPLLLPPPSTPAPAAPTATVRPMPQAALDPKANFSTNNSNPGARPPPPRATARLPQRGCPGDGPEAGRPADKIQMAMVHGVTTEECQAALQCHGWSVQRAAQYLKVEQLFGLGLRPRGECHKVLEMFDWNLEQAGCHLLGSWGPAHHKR
UniProt Q8IU85, sequence (whole entry, looked up): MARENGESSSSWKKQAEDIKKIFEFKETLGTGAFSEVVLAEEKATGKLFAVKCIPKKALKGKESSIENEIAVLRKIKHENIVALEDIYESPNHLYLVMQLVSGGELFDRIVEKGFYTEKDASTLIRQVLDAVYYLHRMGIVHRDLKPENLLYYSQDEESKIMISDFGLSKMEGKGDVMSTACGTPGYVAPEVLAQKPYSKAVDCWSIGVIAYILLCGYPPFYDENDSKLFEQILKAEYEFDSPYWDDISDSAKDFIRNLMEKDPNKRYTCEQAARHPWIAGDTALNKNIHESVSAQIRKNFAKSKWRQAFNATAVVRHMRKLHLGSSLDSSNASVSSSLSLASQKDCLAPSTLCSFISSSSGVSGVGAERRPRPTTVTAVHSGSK
UniProt O60285, sequence (whole entry, looked up): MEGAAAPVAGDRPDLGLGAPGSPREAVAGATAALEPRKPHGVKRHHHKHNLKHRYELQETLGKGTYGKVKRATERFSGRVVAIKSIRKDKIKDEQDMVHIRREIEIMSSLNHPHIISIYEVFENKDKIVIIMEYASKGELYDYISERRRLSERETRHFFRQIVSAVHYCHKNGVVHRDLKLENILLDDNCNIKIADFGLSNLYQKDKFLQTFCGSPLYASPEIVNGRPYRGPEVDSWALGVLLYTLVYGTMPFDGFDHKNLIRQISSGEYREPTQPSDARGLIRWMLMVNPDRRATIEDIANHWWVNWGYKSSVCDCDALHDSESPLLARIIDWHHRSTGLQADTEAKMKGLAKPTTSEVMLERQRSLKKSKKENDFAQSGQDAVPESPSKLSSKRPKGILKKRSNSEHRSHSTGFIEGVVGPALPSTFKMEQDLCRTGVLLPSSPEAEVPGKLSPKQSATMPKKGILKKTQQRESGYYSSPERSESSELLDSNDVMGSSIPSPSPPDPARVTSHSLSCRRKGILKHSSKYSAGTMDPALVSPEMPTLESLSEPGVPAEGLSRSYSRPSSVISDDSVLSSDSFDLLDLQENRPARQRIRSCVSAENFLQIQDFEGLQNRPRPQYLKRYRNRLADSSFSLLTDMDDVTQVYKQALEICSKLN
UniProt Q8TDX7, sequence (whole entry, looked up): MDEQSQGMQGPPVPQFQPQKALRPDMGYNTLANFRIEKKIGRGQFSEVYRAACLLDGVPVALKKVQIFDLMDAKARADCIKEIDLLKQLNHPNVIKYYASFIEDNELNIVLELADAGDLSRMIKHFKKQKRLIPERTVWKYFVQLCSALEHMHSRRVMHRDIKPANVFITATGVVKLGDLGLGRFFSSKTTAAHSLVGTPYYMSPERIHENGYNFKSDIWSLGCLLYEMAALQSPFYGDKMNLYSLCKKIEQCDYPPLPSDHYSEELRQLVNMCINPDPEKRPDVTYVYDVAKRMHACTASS

Study 1 — organism: Sarcocystis neurona; read-out: parasite activity; tested at: 10 µM; time: 96 h
SMILES	activity class
O=c1c(-c2ccccc2)c1-c1ccccc1	active
Cc1cn([C@H]2C=C[C@@H](CO)O2)c(=O)[nH]c1=O	inactive
NC(=O)c1ncn([C@@H]2O[C@H](CO)[C@@H](O)[C@H]2O)n1	inactive
CNNCc1ccc(C(=O)NC(C)C)cc1	inactive
CN(C)CCOC(c1ccc(Cl)cc1)c1ccccn1 (centres unmarked)	inactive
CC[C@H](C)C(=O)O[C@H]1CCC=C2C=C[C@H](C)[C@H](CC[C@@H]3C[C@@H](O)CC(=O)O3)[C@H]21	inactive
Cc1cn([C@H]2C[C@H](N=[N+]=[N-])[C@@H](CO)O2)c(=O)[nH]c1=O	inactive
CCOC(=O)c1ncn2c1CN(C)C(=O)c1cc(F)ccc1-2	inactive
CO[C@@H]1[C@@H](O[C@@H]2O[C@H](C)[C@@H](O[C@H]3C[C@@](C)(O)[C@@H](OC(=O)CC(C)C)[C@H](C)O3)[C@H](N(C)C)[C@H]2O)[C@@H](CC=O)C[C@@H](C)[C@@H](O)/C=C/C=C/C[C@@H](C)OC(=O)C[C@H]1OC(C)=O	inactive
COc1ccc(C2CNC(=O)C2)cc1OC1CCCC1 (centres unmarked)	inactive
C[C@H]1COc2c(N3CCN(C)CC3)c(F)cc3c(=O)c(C(=O)O)cn1c23	inactive
CC(=O)[C@H]1CC[C@H]2[C@@H]3CCC4=CC(=O)CC[C@]4(C)[C@H]3CC[C@]12C	inactive
CO/N=C(\C(=O)N[C@@H]1C(=O)N2C(C(=O)O)=C(COC(C)=O)CS[C@H]12)c1csc(N)n1	inactive

Study 2 — tested at: 1 µM
Structure (SMILES): Cc1ccc(NC(=O)c2ccnc(C(F)(F)F)c2)cc1-c1cc(OCCO)nc(N2CCOCC2)c1
target	test	setting	how to read	remaining binding
Mast/stem cell growth factor receptor Kit (KIT, Homo sapiens, UniProt P10721, T670I/V559D)	competitive binding panel		relative to: vehicle	100%
Receptor-type tyrosine-protein kinase FLT3 (FLT3, Homo sapiens, UniProt P36888)	competitive binding panel		relative to: vehicle	97%
Tyrosine-protein kinase SYK (SYK, Homo sapiens, UniProt P43405)	competitive binding panel		relative to: vehicle	100%
Serine/threonine-protein kinase SIK3 (SIK3, Homo sapiens, UniProt Q9Y2K2)	competitive binding, DiscoverX scanMAX binding			86%
Serine/threonine-protein kinase PAK 5 (PAK5, Homo sapiens, UniProt Q9P286)	competitive binding panel, measured: PAK7		relative to: vehicle	97%
Activated CDC42 kinase 1 (TNK2, Homo sapiens, UniProt Q07912)	competitive binding panel		relative to: vehicle	86%
Ribosomal protein S6 kinase alpha-4 (RPS6KA4, Homo sapiens, UniProt O75676)	competitive binding scan	C-terminal kinase domain 2		100%
Aurora kinase C (AURKC, Homo sapiens, UniProt Q9UQB9)	competitive binding panel		relative to: vehicle	83%
NUAK family SNF1-like kinase 2 (NUAK2, Homo sapiens, UniProt Q9H093)	competitive binding	SNARK		100%
Serine/threonine-protein kinase RIO1 (RIOK1, Homo sapiens, UniProt Q9BRS2)	competitive binding panel		relative to: vehicle	98%
Serine/threonine-protein kinase Nek7 (NEK7, Homo sapiens, UniProt Q8TDX7)	competitive binding panel		relative to: vehicle	100%
LIM domain kinase 1 (LIMK1, Homo sapiens, UniProt P53667)	competitive binding panel		relative to: vehicle	92%
Cyclin-dependent kinase 14 (CDK14, Homo sapiens, UniProt O94921)	competitive binding panel, measured: PFTK1		relative to: vehicle	100%
Mitogen-activated protein kinase kinase kinase 9 (MAP3K9, Homo sapiens, UniProt P80192)	competitive binding panel, measured: MLK1		relative to: vehicle	100%
Tyrosine-protein kinase ABL1 (ABL1, Homo sapiens, UniProt P00519, F317L)	competitive binding panel		relative to: vehicle	84%
Dual specificity protein kinase TTK (TTK, Homo sapiens, UniProt P33981)	competitive binding panel		relative to: vehicle	100%
Serine/threonine-protein kinase NIM1 (NIM1K, Homo sapiens, UniProt Q8IY84)	competitive binding, DiscoverX scanMAX binding			84%

Study 3 — read-out: RNA clamping; method: fluorescence polarization; tested at: concentration not given; notes: mean of two replicates; together with: FAM-labelled poly r(AG)8 RNA
Target: Eukaryotic initiation factor 4A-I (EIF4A1, Homo sapiens, UniProt P60842)
UniProt P60842, sequence (whole entry, looked up): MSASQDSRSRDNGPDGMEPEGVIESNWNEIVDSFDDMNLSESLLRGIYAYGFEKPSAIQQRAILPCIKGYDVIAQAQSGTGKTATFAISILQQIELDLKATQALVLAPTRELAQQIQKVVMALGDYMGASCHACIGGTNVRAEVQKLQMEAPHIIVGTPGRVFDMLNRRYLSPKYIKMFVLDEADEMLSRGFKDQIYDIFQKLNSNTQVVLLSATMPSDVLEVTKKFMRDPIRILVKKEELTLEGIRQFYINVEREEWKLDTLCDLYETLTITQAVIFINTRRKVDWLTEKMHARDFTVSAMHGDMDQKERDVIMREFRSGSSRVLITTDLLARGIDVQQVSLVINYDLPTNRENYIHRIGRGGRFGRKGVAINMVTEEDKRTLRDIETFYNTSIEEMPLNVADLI
Structure (SMILES)	fluorescence polarization change
C#CCOc1ccc(-c2nc3c(c(=O)n2CC#C)[C@@H](c2ccccc2)[C@]2(c4ccc(OC)cc4)Oc4cc(OC)cc(OC)c4[C@]32O)cc1	-2 mP
COCCOCOC(=C(F)F)c1ccc([C@@H]2[C@@H](C(=O)N(C)OC)[C@@H](O)[C@@]3(O)c4c(OC)cc(OC)cc4O[C@@]23c2ccc(OC)cc2)cc1	-8.8 mP
COc1cc(OC)c2c(c1)O[C@@]1(c3ccc(Br)cc3)[C@H](c3ccccc3)C3=C(N[C@H]4CCCN4C3=O)[C@@]21O	43.9 mP
COc1cc(O)cc2c1[C@]1(O)[C@H](O)[C@H](C(=O)N(C)OC)[C@@H](c3ccccc3)[C@]1(c1ccc(Br)cc1)O2	49.3 mP and 85.7 mP
COc1cc(OC)c2c(c1)O[C@@]1(c3ccc(Br)cc3)[C@H](c3ccccc3)c3c(nc(-c4ccccc4)[nH]c3=O)[C@@]21O	16.1 mP
COc1ccc([C@@]23Oc4cc(OC)c(F)c(OC)c4[C@]2(O)c2nc4n(c(=O)c2[C@H]3c2ccccc2)CCC4)cc1	42.6 mP
COC(=O)[C@H]1C(=O)[C@@]2(NCCN(C)C)c3c(OC)cc(OC)cc3O[C@@]2(c2ccc(OC)cc2)[C@@H]1c1ccccc1	3.7 mP
COc1ccc([C@@]23Oc4cc(OC)cc(OC)c4[C@]2(O)C2=NNC(=O)C2=C3c2ccccc2)cc1	10.1 mP
COc1ccc([C@@]23Oc4cc(OC)cc(OC)c4[C@]2(O)[C@H](O)[C@H](C(=O)c2ccc(C)o2)[C@H]3c2ccccc2)cc1	13.8 mP
COc1ccc([C@@]23Oc4cc(OC)cc(OC)c4[C@]2(O)C(=O)[C@H](C(=O)NCCCC2(C)OCCO2)[C@H]3c2ccccc2)cc1	57.1 mP
CCOCCOCCN(OC)C(=O)[C@H]1[C@@H](O)[C@@]2(O)c3c(OC)cc(OC)cc3O[C@@]2(c2ccc(OC)cc2)[C@@H]1c1ccccc1	23.2 mP
CCCCN[C@@]12C(=O)[C@H](C(=O)OC)[C@@H](c3ccccc3)[C@]1(c1ccc(OC)cc1)Oc1cc(OC)cc(OC)c12	15.7 mP
CN[C@@]12C(=O)[C@H](C(=O)OC)[C@@H](c3ccccc3)[C@]1(c1ccc(OC)cc1)Oc1cc(OC)cc(OC)c12	6.9 mP
COc1ccc([C@@]23Oc4cc(OC)cc(OC)c4[C@]2(O)[C@H](O)[C@H](C(=O)c2ccccc2OC)[C@H]3c2ccccc2)cc1	10.6 mP
COc1cc(OC)c2c(c1)O[C@@]1(c3ccc(Br)cc3)[C@H](c3ccccc3)C3=C(O[C@@H]4CCCN4C3=O)[C@@]21O	58.5 mP
COC(=O)[C@@H]1[C@@H](O)[C@@]2(O)c3c(OC)cc(OS(=O)(=O)c4ccc(C)cc4)cc3O[C@@]2(c2ccc(Br)cc2)[C@H]1c1ccccc1	5 mP

Study 4 — method: competition with immobilised ligand; tested at: 1 µM
SMILES: CN1CCN(c2cnc3c(C4CCN(C(=O)c5ccc(OC(F)(F)F)cc5N)CC4)ncnc3c2)CC1
target	test	remaining binding [%]
Dual specificity tyrosine-phosphorylation-regulated kinase 2 (DYRK2, Homo sapiens, UniProt Q92630)	cell-free assay	100
eIF-2-alpha kinase GCN2, C-terminal kinase domain (EIF2AK4, Homo sapiens, UniProt Q9P2K8, S808G)	cell-free assay	99
Serine/threonine-protein kinase BRSK2 (BRSK2, Homo sapiens, UniProt Q8IWQ3)	cell-free assay	100
NUAK family SNF1-like kinase 1 (NUAK1, Homo sapiens, UniProt O60285)	cell-free assay	100
Tyrosine-protein kinase Lck (LCK, Homo sapiens, UniProt P06239)	binding	100
Phosphatidylinositol 5-phosphate 4-kinase type-2 gamma (PIP4K2C, Homo sapiens, UniProt Q8TBX8)	cell-free assay	100
Serine/threonine-protein kinase 32B (STK32B, Homo sapiens, UniProt Q9NY57)	cell-free assay	87
5'-AMP-activated protein kinase catalytic subunit alpha-1 (PRKAA1, Homo sapiens, UniProt Q13131)	cell-free assay	87
Leucine-rich repeat serine/threonine-protein kinase 2 (LRRK2, Homo sapiens, UniProt Q5S007)	cell-free assay	100
Phosphatidylinositol 4,5-bisphosphate 3-kinase catalytic subunit alpha isoform (PIK3CA, Homo sapiens, UniProt P42336, M1043I)	cell-free assay	100
Myosin light chain kinase (MYLK3, Homo sapiens, UniProt Q32MK0)	cell-free assay	82
Atypical kinase COQ8A, mitochondrial (COQ8A, Homo sapiens, UniProt Q8NI60)	cell-free assay	100
Serine/threonine-protein kinase Chk2 (CHEK2, Homo sapiens, UniProt O96017)	cell-free assay	100
Tyrosine-protein kinase Fgr (FGR, Homo sapiens, UniProt P09769)	cell-free assay	100
Tyrosine-protein kinase ABL1, non-phosphorylated (ABL1, Homo sapiens, UniProt P00519, F317I)	binding	100
Serine/threonine-protein kinase Nek2 (NEK2, Homo sapiens, UniProt P51955)	cell-free assay	100
Calcium/calmodulin-dependent protein kinase type II subunit gamma (CAMK2G, Homo sapiens, UniProt Q13555)	cell-free assay	100
Receptor-type tyrosine-protein kinase FLT3 (FLT3, Homo sapiens, UniProt P36888, F691L/ITD)	cell-free assay	100
Calcium/calmodulin-dependent protein kinase type 1D (CAMK1D, Homo sapiens, UniProt Q8IU85)	cell-free assay	100
TGF-beta receptor type-1 (TGFBR1, Homo sapiens, UniProt P36897)	cell-free assay	90
Serine/threonine-protein kinase MARK1 (MARK1, Homo sapiens, UniProt Q9P0L2)	cell-free assay	100
Tyrosine-protein kinase ZAP-70 (ZAP70, Homo sapiens, UniProt P43403)	cell-free assay	100
Rhodopsin kinase GRK1 (GRK1, Homo sapiens, UniProt Q15835)	cell-free assay	96
Muscle, skeletal receptor tyrosine-protein kinase (MUSK, Homo sapiens, UniProt O15146)	cell-free assay	100
Dual specificity testis-specific protein kinase 1 (TESK1, Homo sapiens, UniProt Q15569)	cell-free assay	96
